# Results from different studies.
# Parts stem from different laboratories: compare values within a part only. Substitutions count along the parent as printed.

# Series 1
# Target: CCNB2, cyclin fold, Cln2 fusion (human)
# Method: yeast growth competition, sequencing
# Medium: yeast
# Setting: weak parent motif
# Baseline: not given
# Direction: higher = stronger binding
# Starting sequence: E2F1 docking peptide (human); PPVKRRLDLETDH
Substitution,normalised enrichment score
T11S,0.723
H13C,0.324
T11I,-0.333
E10K,0.115
D12H,-0.16
V3Q,0.179
L7T,0.34
E10H,0.745
D8R,0.235
R6M,0.158
P2I,-0.0324
D8H,-0.348
P1F,1.16
L7A,0.0385
D8V,0.505
L7F,-0.241
R5K,0.0381

# Series 2
# Target: Sal-like protein 4, full length isoform A (SALL4, Homo sapiens, UniProt Q9UJQ4, residues 1-1053)
# Chain of UniProt Q9UJQ4 (whole entry, looked up): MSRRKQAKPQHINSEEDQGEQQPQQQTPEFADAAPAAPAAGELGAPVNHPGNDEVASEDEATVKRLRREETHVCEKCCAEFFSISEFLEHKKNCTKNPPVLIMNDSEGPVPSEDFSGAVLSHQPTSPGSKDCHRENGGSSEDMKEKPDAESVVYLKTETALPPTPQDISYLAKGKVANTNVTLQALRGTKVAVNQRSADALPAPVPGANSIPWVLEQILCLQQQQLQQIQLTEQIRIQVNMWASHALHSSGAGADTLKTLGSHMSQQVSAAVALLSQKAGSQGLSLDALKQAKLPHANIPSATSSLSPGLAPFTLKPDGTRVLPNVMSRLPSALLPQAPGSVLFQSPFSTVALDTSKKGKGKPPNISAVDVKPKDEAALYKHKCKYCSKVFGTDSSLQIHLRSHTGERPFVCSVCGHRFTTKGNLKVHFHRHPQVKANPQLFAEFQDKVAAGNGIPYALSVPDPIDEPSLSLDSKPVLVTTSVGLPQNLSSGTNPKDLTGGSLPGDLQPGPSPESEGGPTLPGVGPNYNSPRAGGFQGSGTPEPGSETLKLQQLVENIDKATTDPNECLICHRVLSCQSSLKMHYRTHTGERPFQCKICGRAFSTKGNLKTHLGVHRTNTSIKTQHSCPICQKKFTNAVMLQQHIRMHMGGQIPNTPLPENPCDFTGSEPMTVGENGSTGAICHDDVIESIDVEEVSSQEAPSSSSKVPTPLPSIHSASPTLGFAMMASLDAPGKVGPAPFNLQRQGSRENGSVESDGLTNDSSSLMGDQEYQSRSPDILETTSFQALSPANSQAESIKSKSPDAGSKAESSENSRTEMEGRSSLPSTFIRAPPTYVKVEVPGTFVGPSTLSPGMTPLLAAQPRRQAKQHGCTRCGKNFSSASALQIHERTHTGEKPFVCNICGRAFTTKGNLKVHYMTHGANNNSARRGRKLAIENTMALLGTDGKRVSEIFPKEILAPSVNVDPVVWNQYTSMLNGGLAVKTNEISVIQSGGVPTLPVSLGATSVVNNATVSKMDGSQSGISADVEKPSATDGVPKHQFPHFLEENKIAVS
# Method: universal PBM
# Form: double-stranded DNA, one strand shown
# Medium: in vitro
# Concentration: 600 nM
# Setting: 8-mer, flanks averaged, mean of replicates
# Direction: higher = stronger binding
Strand,E-score
TAACAACA,0.231
CTAATCCA,0.102
CAGCATCG,-0.27
CGTGTGGA,-0.306
GAATTTAA,0.125
CCATTTCA,0.0914
GACTTAGC,-0.048
CCCAGCTA,-0.191
TCTAACCA,0.0544
ACCTCACT,0.0152
CTGTAGCC,-0.165
AGAAATGC,0.135
AAACCTCA,-0.0413
CTTTGCCA,0.0704
ACCAAGGG,-0.073
TTAACCAA,0.151
GCTGCAGA,-0.192
AGGCCGAC,-0.423
ATTTTGTC,0.25
CCCCAGAG,-0.37
CCCACGTA,-0.0616
GGAGCTCA,-0.143

# Series 3
# Target: RING finger protein unkempt homolog, zinc fingers 1-6, GST-SBP tag (UNK, Homo sapiens, UniProt Q9C0B0, residues 30-357)
# Method: RNA Bind-n-Seq
# Form: RNA
# Medium: in vitro
# Concentration: not given
# Setting: RNA with constant flanks, human and mouse sites, ends assumed
# Baseline: input RNA pool
# Direction: higher = stronger binding
# All sequences stand within: GGGAGUUCUACAGUCCGACGAUC … CAACAGAGGAUUGAGCAUCA
# Target sequence (chain): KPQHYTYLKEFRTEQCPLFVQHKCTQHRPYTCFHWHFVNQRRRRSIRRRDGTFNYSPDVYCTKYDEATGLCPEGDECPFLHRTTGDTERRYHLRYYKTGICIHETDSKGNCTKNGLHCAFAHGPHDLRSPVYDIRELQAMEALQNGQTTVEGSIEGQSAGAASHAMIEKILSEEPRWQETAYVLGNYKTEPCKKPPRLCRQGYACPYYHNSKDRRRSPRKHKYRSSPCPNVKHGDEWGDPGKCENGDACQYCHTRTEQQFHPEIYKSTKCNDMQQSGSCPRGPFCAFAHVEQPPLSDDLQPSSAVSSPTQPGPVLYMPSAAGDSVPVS
Strand,bound/input enrichment [ratio]
UCACAAGAUCUAUCAGCAGCACCUGCUGAACAGUAUCUUCAGGAGAAACUGCCAGAUGAAGUGGUUCUAAAAAUCUUCUCUUACUUGCUGGAACAGGAUCUUUGUAGAGCAGCUUGUGUA,0.113
AAGAGCAGAGGAAAUAACUUUACUGCAAAUCAGAACAAUGAUGAUAAUAUUCCAAACACCACUAGUGACUGCAGGCUGGAGAGUGAGGCCCCCUAUUUGUUGAGUCCAGAGGCUGGGCCU,0.306
CUCACAGGUAGAAUGAACUGUGUACUGGCCACAUAUGGAAGCAUUGCAUUGAUUGUCUUAUAUUUCAAGUUAAGGUCCAAAAAAACUCCAGCUGUGAAAGCAACAUAAAUGGAUUUUAAA,0.151
GUCUAUGGCCAGCGGGUCCCAUAAAGUUCAGUCUGAUUUCAUCUAUUUUCGGAAGGGUCCCUUCUUUGGCCUGGCCUGCUUUGCCAACAUGCCUGUGGAGAGCGAGCUGGAGCGAGGCGC,0.169
UUGUCUUGUUUUUUUUAGGUUUUGUUGUAAUUUAGAUCUAUUUCAUAUAUGGUUUGGAAACUUUCAGACUCAAUAGAACAAAAACUUUGGGUGGGAUGGGUGUCCCUGUCCCCAGCCCAC,16.3
GGAUAUGGUAAAAGAGGCCAAAUGAAACCCUCAGUUGAAUCCUAUUCUGAAGAUGAUGAAAGUAAAUUUUGCAGUUAUGGUCAGUAUCCAGCUGACCUAGCCCAUAAGAUACACAGUGCA,0.0934
GCUACUGCAGCUGCACCUAUGAUUGGUUAUCCAAUGCCAACAGGAUAUUCCCAAUAAGACUUUAGAAGUAUAUGUAAAUGUCUGUUUUUCAUAAUUGCUCUUUAUAUUGUGUGUUAUCUG,1.26
CCAGGGACGUUCUCCCGGAGGGAAUCGUGGGACAGCCAGGGCGUCCCACUCGGAAGAGCUCGCCGGUCUUCACACGUAGUAGCCUUCUCAGGUCUGCAGGGACCACCAGCUGUCAGCCUC,0.0678
GAGCUGCAGGAACCAGACUGGGGGCGAGCUGAGCACCUGUAGUCAAUCACACGCAGCUUUUAGGUUUGUUUGAAUAAGAGAUCUGACCUGACCGGCCCAACUGUACAACUCUUCAAGGAA,0.637
CGUUCAAGAGGAUUUGCCUUUGUAUAUUUUGAAAAUGUAGACGAUGCCAAGGAAGCUAAAGAACGUGCCAAUGGAAUGGAGCUUGAUGGGCGUCGAAUUAGAGUCGAUUUCUCUAUAACA,0.25
AUCCACCAGCUUCUCUCUCACACGCACACAUGCACACACACACAAUUUUAACUUGGUUUUUCUUUUUUGUAAAUAAUGUACAUACUGUCAAUUUUUUAUUAAAGAAAUAUGCUUUGAUGU,1.02

# Further values, each from its own experiment
Molecule,target,assay,test system,conditions,scale,quantity,result
"PhoQ, residues 284 288 289 292 302 303 AQGLTV","PhoP, residues 12 14 15 18 19 IQSYL (Escherichia coli, UniProt P23836)","Sort-seq, measured: YFP reporter",E. coli,"PhoQ-PhoP variant library, added: 10 µM Mg2+","baseline: high Mg2+ state, higher = stronger signaling",fold induction,11.8

# Excerpt of the above (series 2):
Strand,E-score
TAACAACA,0.231
CTAATCCA,0.102
CAGCATCG,-0.27
CGTGTGGA,-0.306
GAATTTAA,0.125
CCATTTCA,0.0914
GACTTAGC,-0.048
